Assay results collected from several papers.
Every numbered part comes from another study and shows a few of its results, in no order. “And” joins repeats or separate records; there may be more than shown.
UniProt P10721, sequence (whole entry, unmodified, looked up): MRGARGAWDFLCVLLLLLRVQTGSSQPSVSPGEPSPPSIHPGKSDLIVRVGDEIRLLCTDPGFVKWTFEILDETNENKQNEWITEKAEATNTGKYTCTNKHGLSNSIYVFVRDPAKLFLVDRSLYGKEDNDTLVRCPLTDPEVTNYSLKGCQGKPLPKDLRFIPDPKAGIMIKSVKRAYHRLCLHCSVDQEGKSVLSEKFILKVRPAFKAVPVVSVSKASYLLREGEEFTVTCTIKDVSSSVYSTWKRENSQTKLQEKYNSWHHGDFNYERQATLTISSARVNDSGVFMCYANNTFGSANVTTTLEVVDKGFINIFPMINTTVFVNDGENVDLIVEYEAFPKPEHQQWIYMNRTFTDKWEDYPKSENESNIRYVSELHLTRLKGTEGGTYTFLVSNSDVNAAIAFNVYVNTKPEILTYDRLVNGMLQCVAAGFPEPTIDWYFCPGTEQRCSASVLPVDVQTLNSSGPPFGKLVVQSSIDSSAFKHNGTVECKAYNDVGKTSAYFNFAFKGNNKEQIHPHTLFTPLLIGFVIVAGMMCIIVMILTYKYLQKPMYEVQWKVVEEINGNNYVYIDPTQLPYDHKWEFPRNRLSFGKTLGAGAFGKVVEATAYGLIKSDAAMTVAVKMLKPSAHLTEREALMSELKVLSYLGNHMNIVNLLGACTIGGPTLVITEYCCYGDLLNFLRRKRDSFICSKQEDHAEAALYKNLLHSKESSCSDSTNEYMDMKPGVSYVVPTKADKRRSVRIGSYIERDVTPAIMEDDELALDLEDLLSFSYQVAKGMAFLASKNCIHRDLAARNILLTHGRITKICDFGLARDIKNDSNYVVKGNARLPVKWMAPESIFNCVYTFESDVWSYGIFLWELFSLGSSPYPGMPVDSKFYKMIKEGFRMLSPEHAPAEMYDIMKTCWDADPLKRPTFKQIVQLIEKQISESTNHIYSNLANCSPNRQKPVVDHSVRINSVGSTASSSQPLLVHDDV
UniProt Q9BRS2, sequence (whole entry, looked up): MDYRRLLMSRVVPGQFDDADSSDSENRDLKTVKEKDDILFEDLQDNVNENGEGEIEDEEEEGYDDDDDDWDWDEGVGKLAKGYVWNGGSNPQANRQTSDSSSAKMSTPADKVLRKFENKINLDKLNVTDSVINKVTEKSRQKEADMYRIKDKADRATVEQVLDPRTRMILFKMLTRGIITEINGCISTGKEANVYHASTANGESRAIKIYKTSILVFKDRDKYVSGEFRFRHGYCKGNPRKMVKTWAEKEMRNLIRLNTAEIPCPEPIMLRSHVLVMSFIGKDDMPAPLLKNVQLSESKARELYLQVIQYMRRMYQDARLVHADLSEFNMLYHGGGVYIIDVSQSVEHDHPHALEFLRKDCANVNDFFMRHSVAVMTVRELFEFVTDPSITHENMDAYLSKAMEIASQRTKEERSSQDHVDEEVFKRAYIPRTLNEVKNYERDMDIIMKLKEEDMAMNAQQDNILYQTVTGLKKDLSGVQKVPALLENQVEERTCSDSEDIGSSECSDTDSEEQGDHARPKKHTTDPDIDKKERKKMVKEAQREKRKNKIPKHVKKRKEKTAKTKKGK
UniProt O00141, sequence (whole entry, looked up): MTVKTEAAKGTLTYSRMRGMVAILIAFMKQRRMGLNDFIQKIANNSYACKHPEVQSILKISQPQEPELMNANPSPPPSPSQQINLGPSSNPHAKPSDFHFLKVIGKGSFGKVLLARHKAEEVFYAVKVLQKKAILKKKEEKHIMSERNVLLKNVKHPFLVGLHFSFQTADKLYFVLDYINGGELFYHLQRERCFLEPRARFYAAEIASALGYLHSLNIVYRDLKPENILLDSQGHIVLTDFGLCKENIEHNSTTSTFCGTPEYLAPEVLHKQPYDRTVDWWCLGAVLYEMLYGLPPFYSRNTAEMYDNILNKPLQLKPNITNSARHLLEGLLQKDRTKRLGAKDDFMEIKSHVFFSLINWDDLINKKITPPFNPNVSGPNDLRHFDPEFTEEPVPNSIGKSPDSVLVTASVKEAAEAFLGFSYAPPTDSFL
UniProt Q13976, sequence (whole entry, looked up): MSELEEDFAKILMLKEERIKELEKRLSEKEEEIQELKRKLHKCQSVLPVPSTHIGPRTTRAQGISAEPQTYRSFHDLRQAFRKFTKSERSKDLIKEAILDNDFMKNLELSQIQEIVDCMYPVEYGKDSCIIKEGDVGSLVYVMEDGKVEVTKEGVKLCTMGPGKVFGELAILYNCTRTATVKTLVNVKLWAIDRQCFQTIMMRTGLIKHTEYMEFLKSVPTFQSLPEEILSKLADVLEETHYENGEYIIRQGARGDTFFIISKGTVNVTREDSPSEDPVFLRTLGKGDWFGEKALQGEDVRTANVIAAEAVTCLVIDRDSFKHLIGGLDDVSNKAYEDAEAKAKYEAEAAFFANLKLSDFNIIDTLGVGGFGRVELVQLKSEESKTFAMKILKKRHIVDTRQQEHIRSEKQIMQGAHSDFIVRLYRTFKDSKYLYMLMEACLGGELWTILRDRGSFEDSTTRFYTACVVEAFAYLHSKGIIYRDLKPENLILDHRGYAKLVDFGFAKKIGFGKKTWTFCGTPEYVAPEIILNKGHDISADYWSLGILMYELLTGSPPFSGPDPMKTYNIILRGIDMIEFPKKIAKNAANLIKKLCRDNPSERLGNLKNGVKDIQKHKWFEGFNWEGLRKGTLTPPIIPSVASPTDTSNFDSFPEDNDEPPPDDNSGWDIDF
UniProt O00506, sequence (whole entry, looked up): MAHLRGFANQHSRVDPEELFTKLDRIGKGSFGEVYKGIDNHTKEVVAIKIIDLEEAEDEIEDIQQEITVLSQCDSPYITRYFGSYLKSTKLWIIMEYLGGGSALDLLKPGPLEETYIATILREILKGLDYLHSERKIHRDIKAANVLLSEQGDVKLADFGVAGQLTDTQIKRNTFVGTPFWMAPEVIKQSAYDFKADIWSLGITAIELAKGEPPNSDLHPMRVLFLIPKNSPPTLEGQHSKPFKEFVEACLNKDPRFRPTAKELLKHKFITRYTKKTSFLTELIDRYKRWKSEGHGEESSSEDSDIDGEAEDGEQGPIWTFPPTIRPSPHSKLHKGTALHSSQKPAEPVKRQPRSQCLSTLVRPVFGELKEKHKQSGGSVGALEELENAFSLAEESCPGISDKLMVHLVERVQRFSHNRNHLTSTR
UniProt Q86UE8, sequence (whole entry, looked up): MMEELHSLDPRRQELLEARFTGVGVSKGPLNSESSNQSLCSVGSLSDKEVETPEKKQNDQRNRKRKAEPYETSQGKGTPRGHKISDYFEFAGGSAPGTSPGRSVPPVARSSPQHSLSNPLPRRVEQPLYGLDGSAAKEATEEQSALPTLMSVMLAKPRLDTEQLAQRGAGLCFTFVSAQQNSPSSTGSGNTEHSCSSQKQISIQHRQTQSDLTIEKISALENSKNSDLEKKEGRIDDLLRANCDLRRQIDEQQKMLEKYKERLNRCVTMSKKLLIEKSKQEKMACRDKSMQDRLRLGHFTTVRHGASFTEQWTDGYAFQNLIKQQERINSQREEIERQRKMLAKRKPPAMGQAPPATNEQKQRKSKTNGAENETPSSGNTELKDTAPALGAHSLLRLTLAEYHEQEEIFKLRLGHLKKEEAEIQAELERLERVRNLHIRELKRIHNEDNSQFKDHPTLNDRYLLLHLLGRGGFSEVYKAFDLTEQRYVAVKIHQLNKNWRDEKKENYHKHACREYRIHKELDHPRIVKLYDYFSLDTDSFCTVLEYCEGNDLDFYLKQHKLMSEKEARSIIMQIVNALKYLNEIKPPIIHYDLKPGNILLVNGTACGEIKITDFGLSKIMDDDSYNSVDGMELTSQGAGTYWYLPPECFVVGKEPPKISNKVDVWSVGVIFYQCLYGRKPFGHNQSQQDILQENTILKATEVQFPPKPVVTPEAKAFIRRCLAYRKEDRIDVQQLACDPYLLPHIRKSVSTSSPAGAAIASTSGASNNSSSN
UniProt P33981, sequence (whole entry, looked up): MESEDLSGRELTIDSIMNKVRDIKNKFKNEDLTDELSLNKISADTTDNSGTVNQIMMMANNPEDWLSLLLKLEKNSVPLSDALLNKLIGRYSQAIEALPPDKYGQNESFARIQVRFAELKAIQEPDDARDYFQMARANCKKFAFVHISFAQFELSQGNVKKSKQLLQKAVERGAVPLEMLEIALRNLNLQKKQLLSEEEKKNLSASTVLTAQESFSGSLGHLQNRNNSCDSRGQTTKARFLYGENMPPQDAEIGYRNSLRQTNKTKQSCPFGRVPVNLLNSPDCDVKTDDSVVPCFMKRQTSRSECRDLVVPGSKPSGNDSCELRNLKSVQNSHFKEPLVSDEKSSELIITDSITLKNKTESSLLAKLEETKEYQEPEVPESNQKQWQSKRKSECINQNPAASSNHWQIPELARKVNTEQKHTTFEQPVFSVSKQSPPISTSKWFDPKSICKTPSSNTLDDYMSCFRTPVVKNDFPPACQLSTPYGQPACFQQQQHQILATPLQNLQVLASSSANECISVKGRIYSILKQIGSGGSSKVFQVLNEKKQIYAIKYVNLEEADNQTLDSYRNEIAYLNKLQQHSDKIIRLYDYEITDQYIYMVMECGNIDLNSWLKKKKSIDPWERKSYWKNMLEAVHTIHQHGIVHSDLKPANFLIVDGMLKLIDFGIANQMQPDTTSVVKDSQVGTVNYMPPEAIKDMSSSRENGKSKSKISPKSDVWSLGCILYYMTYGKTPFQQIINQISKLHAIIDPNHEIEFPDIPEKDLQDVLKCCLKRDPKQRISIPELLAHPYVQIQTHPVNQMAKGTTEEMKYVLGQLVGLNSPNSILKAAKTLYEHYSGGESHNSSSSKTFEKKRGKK
UniProt Q9HC98, sequence (whole entry, looked up): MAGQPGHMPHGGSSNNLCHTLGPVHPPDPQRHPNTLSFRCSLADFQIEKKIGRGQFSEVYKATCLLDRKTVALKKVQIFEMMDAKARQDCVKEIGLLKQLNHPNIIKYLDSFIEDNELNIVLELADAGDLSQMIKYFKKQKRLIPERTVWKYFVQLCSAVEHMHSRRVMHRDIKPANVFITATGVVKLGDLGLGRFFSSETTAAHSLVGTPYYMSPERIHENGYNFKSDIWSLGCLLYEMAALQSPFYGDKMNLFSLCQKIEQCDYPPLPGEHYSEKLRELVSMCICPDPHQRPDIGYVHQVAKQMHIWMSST

Study 1
Compound: C[C@H]1CC[C@H](n2c3cnccc3c3cnc(Nc4ccc5c(n4)CCN(C(=O)CO)C5)nc32)CC1
Concentration: 1 µM
Measurement: remaining binding
target = TAOK3 (Homo sapiens, UniProt Q9H2K8); assay = binding, competition with immobilised ligand; value = 77%
target = Myosin-IIIb (MYO3B, Homo sapiens, UniProt Q8WXR4); assay = binding, competition with immobilised ligand; value = 100%
target = Myosin-IIIa (MYO3A, Homo sapiens, UniProt Q8NEV4); assay = binding; value = 100%
target = LYN (Homo sapiens, UniProt P07948); assay = cell-free assay, competition with immobilised ligand; value = 76%
target = PIK3C2G (Homo sapiens, UniProt O75747); assay = binding; value = 100%
target = MYLK2 (Homo sapiens, UniProt Q9H1R3); assay = binding, competition with immobilised ligand; value = 87%
target = STK32A (Homo sapiens, UniProt Q8WU08); assay = binding; value = 100%
target = CDKL1 (Homo sapiens, UniProt Q00532); assay = binding; value = 65%

Study 2
Compound: COCCOc1nc(-c2ccc(Cl)nc2)nc2c1CN(C(=O)c1ncn3ccccc13)CC2
Effect on: cell-free assay
Method: competition with immobilised ligand
Concentration: 0.1 µM
Measurement: remaining binding
target = NEK6 (Homo sapiens, UniProt Q9HC98); value = 100%
target = KIT (Homo sapiens, UniProt P10721, A829P); value = 88%
target = IKBKE (Homo sapiens, UniProt Q14164); value = 100%
target = RIOK1 (Homo sapiens, UniProt Q9BRS2); value = 93%
target = FLT3 (Homo sapiens, UniProt P36888, D835V/ITD); value = 100%
target = ULK3 (Homo sapiens, UniProt Q6PHR2); value = 81%
target = NEK9 (Homo sapiens, UniProt Q8TD19); value = 100%
target = MAPK11 (Homo sapiens, UniProt Q15759); value = 100%
target = PAK3 (Homo sapiens, UniProt O75914); value = 100%
target = Receptor-type tyrosine-protein kinase FLT3, autoinhibited (FLT3, Homo sapiens, UniProt P36888); value = 100%
target = MARK2 (Homo sapiens, UniProt Q7KZI7); value = 100%
target = CAMK1 (Homo sapiens, UniProt Q14012); value = 100%
target = PRKG1 (Homo sapiens, UniProt Q13976); value = 87%
target = PLK4 (Homo sapiens, UniProt O00444); value = 85%
target = CSK (Homo sapiens, UniProt P41240); value = 100%
target = TESK1 (Homo sapiens, UniProt Q15569); value = 100%
target = MAP3K4 (Homo sapiens, UniProt Q9Y6R4); value = 100%
target = TTK (Homo sapiens, UniProt P33981); value = 100%
target = EGFR (Homo sapiens, UniProt P00533, A750P/del747-749); value = 85%
target = PIKFYVE (Homo sapiens, UniProt Q9Y2I7); value = 90%
target = EGFR (Homo sapiens, UniProt P00533, G719S); value = 97%
target = PRKCH (Homo sapiens, UniProt P24723); value = 97%
target = CDKL3 (Homo sapiens, UniProt Q8IVW4); value = 96%
target = GRK4 (Homo sapiens, UniProt P32298); value = 73%
target = TLK2 (Homo sapiens, UniProt Q86UE8); value = 100%

Study 3
SMILES: C=CC(=O)N1CCC([C@@H]2CCNc3c(C(N)=O)c(-c4ccc(Oc5ccccc5)cc4)nn32)CC1
Effect on: enzyme activity
Mode: inhibitor
Concentration: 1 µM
Measurement: inhibition
target = SGK1 (Homo sapiens, UniProt O00141); value = 1%
target = Tyrosine-protein kinase ABL1, non-phosphorylated (ABL1, Homo sapiens, UniProt P00519, F317L); value = 33%
target = NEK1 (Homo sapiens, UniProt Q96PY6); value = 15%
target = MARK1 (Homo sapiens, UniProt Q9P0L2); value = 7%
target = Mast/stem cell growth factor receptor Kit, autoinhibited (KIT, Homo sapiens, UniProt P10721); value = 4%
target = NEK11 (Homo sapiens, UniProt Q8NG66); value = 0%
target = STK25 (Homo sapiens, UniProt O00506); value = 8%

Study 4
SMILES: CN1CCC[C@H]1COc1nc2c(c(N3CCN(S(C)(=O)=O)[C@@H](CC#N)C3)n1)CCN(c1cccc3cccc(Cl)c13)C2
Effect on: binding
Mode: competitor
Method: NanoBRET
Cells: HEK293
Measurement: normalized BRET
KRAS Q61H: GTPase KRas (KRAS, Homo sapiens, UniProt P01116, Q61H)
KRAS G12D: GTPase KRas (KRAS, Homo sapiens, UniProt P01116, G12D)
KRAS Q61L: GTPase KRas (KRAS, Homo sapiens, UniProt P01116, Q61L)
target = GTPase KRas (KRAS, Homo sapiens, UniProt P01116, Q61R); setting = 1.24 µM; value = 91.2% and 77% and 71.6%
target = KRAS Q61H; setting = 45.7 nM; value = 89.7% and 82.7% and 100%
target = KRAS G12D; setting = 3.7 µM; value = 69.8% and 80.5% and 84.7%
target = KRAS Q61L; setting = 33.3 µM; value = 14.1% and 19.7% and 15.8%
target = KRAS Q61L; setting = 1.24 µM; value = 43.2% and 41.2% and 51.3%
target = KRAS G12D; setting = 1.69 nM; value = 102% and 88.5% and 101%
target = GTPase KRas (KRAS, Homo sapiens, UniProt P01116, G13D); setting = 15.2 nM; value = 100% and 92.3% and 92%
target = KRAS Q61L; setting = 412 nM; value = 64.5% and 76.3% and 66.5%
target = KRAS Q61L; setting = 45.7 nM; value = 100% and 87.4% and 92.6%
target = KRAS Q61H; setting = 412 nM; value = 59.6% and 66.7% and 73.6%
